# Measured values pooled from the literature.
# Protocols differ between the studies behind these lines. ± gives the spread as reported.
SMILES,assay,system,setting,how to read,endpoint,value
CCCC[C@H](NC(=O)CNC(=O)[C@H](CO)NC(=O)CNC(=O)c1ccc(NN)nc1)C(=O)N[C@H]1CC(=O)NCCCC[C@@H](C(N)=O)NC(=O)[C@H](Cc2c[nH]c3ccccc23)NC(=O)[C@H](CCCNC(=N)N)NC(=O)[C@@H](Cc2ccccc2)NC(=O)[C@H](Cc2c[nH]cn2)NC1=O [technetium-99m labelled],,"C57 mouse, B16/F1 melanoma, spleen","intravenous, 2 h",,uptake,0.08 ± 0.02 %ID/g
N=C(N)NCCC[C@@H]1NC(=O)[C@H](CCCCNC(=O)CCOCCOCCOCCOCCNC(=O)CC[C@H](NC(=O)CCOCCOCCOCCOCCNC(=O)CC[C@H](NC(=O)CN2CCN(CC(=O)O)CCN(CC(=O)O)CCN(CC(=O)O)CC2)C(=O)NCCOCCOCCOCCOCCC(=O)N[C@@H](CCC(=O)NCCOCCOCCOCCOCCC(=O)NCCCC[C@@H]2NC(=O)[C@@H](Cc3ccccc3)NC(=O)[C@H](CC(=O)O)NC(=O)CNC(=O)[C@H](CCCNC(=N)N)NC2=O)C(=O)NCCOCCOCCOCCOCCC(=O)NCCCC[C@@H]2NC(=O)[C@@H](Cc3ccccc3)NC(=O)[C@H](CC(=O)O)NC(=O)CNC(=O)[C@H](CCCNC(=N)N)NC2=O)C(=O)NCCOCCOCCOCCOCCC(=O)NCCCC[C@@H]2NC(=O)[C@@H](Cc3ccccc3)NC(=O)[C@H](CC(=O)O)NC(=O)CNC(=O)[C@H](CCCNC(=N)N)NC2=O)NC(=O)[C@@H](Cc2ccccc2)NC(=O)[C@H](CC(=O)O)NC(=O)CNC1=O [indium-111 labelled],,"athymic nude mice, female, U-87 MG glioma xenograft, tumour and kidney","intravenous, 1 h",baseline: tumour over kidney,tumour to tissue ratio,1.56 ± 0.41
CC(C)C[C@@H]1NC(=O)[C@H](C(C)C)NC(=O)[C@H](CO)NC(=O)CNC(=O)CNC(=O)[C@H](CCCNC(=N)N)NC(=O)[C@@H]2CCCN2C(=O)[C@@H](NC(=O)CC[C@H](NC(=O)c2ccc(N(C)Cc3cnc4nc(N)nc(N)c4n3)cc2)C(=O)O)C(C)(C)SSC[C@@H](C(=O)O)NC(=O)CNC(=O)[C@H]([C@@H](C)O)NC(=O)[C@H](C(C)C)NC1=O,,phosphate buffer,"100 µM, pH 6.0, 70 °C",,half-life,770 h
CC(C)C[C@H](NC(=O)[C@@H]1CCCN1C(=O)[C@H](CCCCN)NC(=O)[C@@H](N)CO)C(=O)N1CCC[C@H]1C(=O)N[C@@H](CCC(=O)O)C(=O)N[C@H](C(=O)N[C@H](C(=O)N[C@@H](CC(=O)O)C(=O)N[C@@H](CCC(=O)O)C(=O)N[C@@H](Cc1ccc(O)cc1)C(=O)N[C@@H](Cc1cn(CCOCCOCCOCCNC(=O)CCc2ccc(O)c(CN(CCN(CC(=O)O)Cc3cc(CCC(=O)NCCCC[C@H](NC(=O)N[C@@H](CCC(=O)O)C(=O)O)C(=O)O)ccc3O)CC(=O)O)c2)nn1)C(=O)O)[C@@H](C)O)C(C)C [gallium-68 labelled],,"NMRI nu/nu mice, LNCaP tumour, lung","10 MBq, high molar activity",,standardized uptake value,0.25 g/g
CCCC[C@H](NC(=O)CNC(=O)CNC(=O)c1ccc(NN)nc1)C(=O)N[C@H]1CC(=O)NCCCC[C@@H](C(N)=O)NC(=O)[C@H](Cc2c[nH]c3ccccc23)NC(=O)[C@H](CCCNC(=N)N)NC(=O)[C@@H](Cc2ccccc2)NC(=O)[C@H](Cc2c[nH]cn2)NC1=O [technetium-99m labelled],,"C57 mouse, B16/F1 melanoma-bearing","intravenous, 2 h",baseline: tumour over liver,tissue uptake ratio,27.2
N=C(N)NCCC[C@@H]1NC(=O)[C@H](CCCCNC(=O)CC[C@H](NC(=O)CCOCCOCCOCCOCCNC(=O)CN2CCN(CC(=O)O)CCN(CC(=O)O)CCN(CC(=O)O)CC2)C(=O)NCCCC[C@@H]2NC(=O)[C@@H](Cc3ccccc3)NC(=O)[C@H](CC(=O)O)NC(=O)CNC(=O)[C@H](CCCNC(=N)N)NC2=O)NC(=O)[C@@H](Cc2ccccc2)NC(=O)[C@H](CC(=O)O)NC(=O)CNC1=O [indium-111 labelled],,"athymic nude mice, female, U-87 MG glioma xenograft, tumour and blood","intravenous, 24 h",baseline: tumour over blood,tumour to tissue ratio,41.3 ± 8.03
CC[C@H]1CN2CCc3cc(OC)c(OC)cc3[C@@H]2C[C@@H]1C[C@@H]1c2cc(OC)c(OC)cc2CCN1C(=O)OCc1ccc(NC(=O)[C@@H]2CCCN2C(=O)[C@H](C)NC(=O)[C@H](CCC(N)=O)NC(=O)[C@H](CC(C)C)NC(=O)[C@H](CCCCN)NC(=O)[C@H](CO)NC(=O)[C@H](CO)NC(=O)[C@H](Cc2cnc[nH]2)NC(C)=O)cc1,convulsions and death,mouse,"intravenous, single dose",,toxic dose,50 mg/kg
CC[C@H](C)[C@@H]([C@@H](CC(=O)N1CCC[C@H]1[C@H](OC)[C@@H](C)C(=O)N[C@H](C)[C@@H](O)c1ccccc1)OC)N(C)C(=O)[C@@H](NC(=O)[C@H](C(C)C)N(C)C(=O)OCc1ccc(NC(=O)[C@H](CCCNC(N)=O)NC(=O)[C@@H](NC(=O)CCCc2cn(CC(=O)N[C@@H](CCCCNC(=O)CC[C@H](NC(=O)c3ccc(NCc4cnc5nc(N)[nH]c(=O)c5n4)cc3)C(=O)O)C(=O)NCCCC[C@H]3NC(=O)[C@H](CCCCN)NC(=O)[C@H](CCCNC(N)=O)NC(=O)[C@H](Cc4ccc(O)cc4)NC(=O)[C@@H](NC(=O)[C@H](Cc4ccc5ccccc5c4)NC(=O)[C@H](CCCNC(=N)N)NC(=O)[C@@H](N)CCCNC(=N)N)CSSC[C@@H](C(=O)N[C@@H](CCCNC(=N)N)C(N)=O)NC(=O)[C@H](CCCNC(N)=O)NC(=O)[C@H](CCCNC(=N)N)NC(=O)[C@H](Cc4ccc(O)cc4)NC(=O)[C@@H]4CCCN4C3=O)nn2)C(C)C)cc1)C(C)C,,mouse serum,"0.5 mmol/L, 37 °C",,half-life,16.9 h
CCCC[C@@H](NC(=O)[C@H](Cc1c[nH]c2ccccc12)NC(=O)[C@@H](N)CSC1CC(=O)N(CC2CCC(C(=O)N[C@H]3C[C@H](O[C@H]4C[C@](O)(C(=O)CO)Cc5c(O)c6c(c(O)c54)C(=O)c4c(OC)cccc4C6=O)O[C@@H](C)[C@H]3O)CC2)C1=O)C(=O)N[C@@H](CCC(=O)O)C(=O)N[C@@H](C)C(=O)N[C@@H](C)C(=O)N[C@@H](Cc1ccc(O)cc1)C(=O)N[C@@H](CCC(N)=O)C(=O)N[C@H](CCCNC(=N)N)C(=O)N[C@@H](Cc1ccccc1)C(=O)N[C@@H](CC(C)C)C(N)=O (some centres unmarked),,DMEM/F12 with HEPES,"100 µM, 37 °C",,half-life,~48 h
CSCC[C@H](NC(=O)[C@H](CC(C)C)NC(=O)[C@H](Cc1c[nH]cn1)NC(=O)CNC(=O)[C@@H](NC(=O)[C@H](C)NC(=O)[C@H](Cc1c[nH]c2ccccc12)NC(=O)[C@H](CCC(N)=O)NC(=O)CCCCCNC(=O)CNC(=O)CNC(=O)CNC(=O)CSC(C)=O)C(C)C)C(N)=O [technetium-99m labelled],,"healthy Swiss mouse, stomach, contents removed","intravenous, 18.5 MBq, 30 min",,tissue uptake,0.49 ± 0.05 %ID/g
CCCC[C@H](NC(=O)CCCCCCCNC(=O)c1ccc(NN)nc1)C(=O)N[C@H]1CC(=O)NCCCC[C@@H](C(N)=O)NC(=O)[C@H](Cc2c[nH]c3ccccc23)NC(=O)[C@H](CCCNC(=N)N)NC(=O)[C@@H](Cc2ccccc2)NC(=O)[C@H](Cc2c[nH]cn2)NC1=O [technetium-99m labelled],,"C57 mouse, B16/F1 melanoma, brain","intravenous, 0.5 h",,uptake,0.17 ± 0.07 %ID/g
C[C@@H](O)[C@H](NC(=O)[C@@H]1CSSC[C@H](NC(=O)[C@@H](Cc2ccccc2)NC(=O)CN2CCCN3CCN(CCCN(CP(=O)(O)O)CC3)CC2)C(=O)N[C@@H](Cc2ccc(O)cc2)C(=O)N[C@H](Cc2c[nH]c3ccccc23)C(=O)N[C@@H](CCCCN)C(=O)N[C@@H]([C@@H](C)O)C(=O)N1)C(=O)O [copper-64 labelled],,"male Lewis rat, AR-42J tumour-bearing","dose not given, 1 to 24 h",,activity cleared from tumour,72%
CCCC[C@H](NC(=O)CNC(=O)CNC(=O)CNC(=O)c1ccc(NN)nc1)C(=O)N[C@H]1CC(=O)NCCCC[C@@H](C(N)=O)NC(=O)[C@H](Cc2c[nH]c3ccccc23)NC(=O)[C@H](CCCNC(=N)N)NC(=O)[C@@H](Cc2ccccc2)NC(=O)[C@H](Cc2c[nH]cn2)NC1=O [technetium-99m labelled],,"C57 mouse, B16/F1 melanoma, kidneys","intravenous, 2 h",,uptake,5.09 ± 2.19 %ID/g
N=C(N)NCCC[C@@H]1NC(=O)[C@H](CCCCNC(=O)CNC(=O)CNC(=O)CNC(=O)CC[C@H](NC(=O)CCOCCOCCOCCOCCNC(=O)CC[C@H](NC(=O)CN2CCN(CC(=O)O)CCN(CC(=O)O)CCN(CC(=O)O)CC2)C(=O)NCCOCCOCCOCCOCCC(=O)N[C@@H](CCC(=O)NCC(=O)NCC(=O)NCC(=O)NCCCC[C@@H]2NC(=O)[C@@H](Cc3ccccc3)NC(=O)[C@H](CC(=O)O)NC(=O)CNC(=O)[C@H](CCCNC(=N)N)NC2=O)C(=O)NCC(=O)NCC(=O)NCC(=O)NCCCC[C@@H]2NC(=O)[C@@H](Cc3ccccc3)NC(=O)[C@H](CC(=O)O)NC(=O)CNC(=O)[C@H](CCCNC(=N)N)NC2=O)C(=O)NCC(=O)NCC(=O)NCC(=O)NCCCC[C@@H]2NC(=O)[C@@H](Cc3ccccc3)NC(=O)[C@H](CC(=O)O)NC(=O)CNC(=O)[C@H](CCCNC(=N)N)NC2=O)NC(=O)[C@@H](Cc2ccccc2)NC(=O)[C@H](CC(=O)O)NC(=O)CNC1=O [indium-111 labelled],,"athymic nude mice, female, U-87 MG glioma xenograft, tumour and muscle","intravenous, 0.5 h",baseline: tumour over muscle,tumour to tissue ratio,6.99 ± 1.79
